Experimental data pooled from the literature.
Every numbered part comes from another study and shows a few of its results, in no order. Changes are numbered by the printed parent chain.
Chain of UniProt Q9BVS4 (whole entry, looked up): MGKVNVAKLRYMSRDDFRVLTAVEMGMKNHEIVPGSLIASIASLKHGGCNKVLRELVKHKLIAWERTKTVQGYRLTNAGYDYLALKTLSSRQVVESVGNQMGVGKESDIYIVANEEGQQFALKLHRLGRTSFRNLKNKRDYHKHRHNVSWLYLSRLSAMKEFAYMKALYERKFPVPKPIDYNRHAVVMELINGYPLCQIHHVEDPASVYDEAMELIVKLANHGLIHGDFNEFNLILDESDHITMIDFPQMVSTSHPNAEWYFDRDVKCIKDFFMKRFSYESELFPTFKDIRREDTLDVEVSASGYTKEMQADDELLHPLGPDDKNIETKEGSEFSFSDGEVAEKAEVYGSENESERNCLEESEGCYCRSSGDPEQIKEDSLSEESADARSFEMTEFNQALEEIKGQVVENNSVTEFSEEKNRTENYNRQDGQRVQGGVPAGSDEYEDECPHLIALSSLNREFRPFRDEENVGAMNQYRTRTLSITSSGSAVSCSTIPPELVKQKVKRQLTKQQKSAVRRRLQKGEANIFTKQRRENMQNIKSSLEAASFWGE

Set 1
Target: MAFF, bZIP domain (human)
Technique: DHFR protein complementation
Medium: yeast
Notes: single substitutions, most at no-binding floor
Relative to: wild-type JUN-FOS pair
Reading: higher = stronger binding
Starting sequence: JUN, bZIP domain (human); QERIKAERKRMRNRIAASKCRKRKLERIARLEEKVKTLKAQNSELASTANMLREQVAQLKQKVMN; partner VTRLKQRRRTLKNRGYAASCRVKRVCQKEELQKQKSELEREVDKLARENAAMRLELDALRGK
Substitution	binding fitness [natural log]
A57V	-1.57
E44I	-1.49
E32G	-1.48
R53H	-1.15
S47P	-1.54
S47L	-1.41
L38C	-1.41
A46Y	-1.44

Set 2
Target: Phosphate system positive regulatory protein PHO4, full length, GST-tagged (PHO4, Saccharomyces cerevisiae, UniProt P07270, residues 1-312)
Technique: competition protein-binding microarray
Form: double-stranded DNA, one strand shown
Medium: in vitro
Concentration: 2 µM
Notes: whole 60-bp probe, lowest competitor level
Added: Cbf1 competitor, 0.05 µM
Reading: higher = stronger binding
Constant ends, left off below: … GTCTTGATTCGCTTGACGCTGCTG
Construct (chain): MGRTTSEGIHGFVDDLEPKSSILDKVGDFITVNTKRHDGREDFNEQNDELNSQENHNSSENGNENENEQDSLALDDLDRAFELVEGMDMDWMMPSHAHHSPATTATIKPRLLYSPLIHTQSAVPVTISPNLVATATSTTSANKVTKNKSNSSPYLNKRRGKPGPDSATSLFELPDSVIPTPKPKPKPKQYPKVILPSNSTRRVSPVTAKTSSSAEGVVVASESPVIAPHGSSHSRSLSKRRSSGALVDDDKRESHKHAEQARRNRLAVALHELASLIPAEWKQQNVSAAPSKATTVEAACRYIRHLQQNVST
Strand	fluorescence intensity
CATACCCAACCTTGTCACTCCACTTAAGATATTTGT	3930 a.u.
TGCTAGAGCTCGTTCCACGTGGTTACACATCCGCCA	15700 a.u.
TGCGGTGTAACGGTCCCCGTGCGGAAGTCAACGGAA	8840 a.u.
CTTTCCCGATCTTGCTCCGTGGGTGTAGCACATTTG	6860 a.u.
TCCGAATACTGTATTAACAACGTAGAAGAACTGATG	4230 a.u.
TTTGGGGTACGGAACAACGTGATTGGGAAGCTGCTC	9530 a.u.
TGCGCAACAACTTTTCACGTGCCCTTATGTCTAGAA	14500 a.u.
TGTGGGAATTGTACCCACGATCCCCGCATTACGAGT	9050 a.u.

Set 3
Target: Hepatocyte nuclear factor 3-alpha (Foxa1, Mus musculus, UniProt P35582, residues 1-468, full length assumed)
Chain of UniProt P35582 (whole entry, looked up): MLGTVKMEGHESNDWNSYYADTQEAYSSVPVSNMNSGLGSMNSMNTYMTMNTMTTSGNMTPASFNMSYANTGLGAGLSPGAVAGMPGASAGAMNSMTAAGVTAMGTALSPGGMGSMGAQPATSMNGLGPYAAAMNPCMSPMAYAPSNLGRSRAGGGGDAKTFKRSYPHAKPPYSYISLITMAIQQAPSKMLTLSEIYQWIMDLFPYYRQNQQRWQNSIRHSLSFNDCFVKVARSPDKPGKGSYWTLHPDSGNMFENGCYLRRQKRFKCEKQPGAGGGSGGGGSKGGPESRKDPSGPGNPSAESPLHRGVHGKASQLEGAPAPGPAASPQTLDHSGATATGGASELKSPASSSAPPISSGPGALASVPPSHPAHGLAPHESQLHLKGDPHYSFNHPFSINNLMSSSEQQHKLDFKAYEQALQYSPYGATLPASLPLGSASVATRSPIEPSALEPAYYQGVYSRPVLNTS
Technique: EMSA with sequencing
Form: double-stranded DNA, one strand shown
Medium: in vitro
Concentration: 10 and 20 nM
Notes: whole designed probe, mean of two concentrations, ends assumed
Relative to: negative control set to 0
Reading: higher = stronger binding
Constant ends, left off below: GTGAGCGGTGCCCATTGATGGGGAAC … TTTCACTGGGATCGTGGGGAC
Strand	normalised bound fraction
CCTCTGACTCACCCTTCCTAGTGCCACCCAAGTTTCATCTGCACCATTGCTTACACATAATACAAGTACTTAAATTACTTACGCATTTGTTAAAGATTGCTCAGCTGTCTTGGTGCCTTTGTGTCTTTCACTGTGCTTTTAATTAGCTCGGCTGATTCTAAGAGTGGAGGTAAGCCAAGGTTTGAACCAGGTG	-0.0309 ratio
CTCATCTTAGATAGTAGAATCGCAGCATTTTTTTCTGCCGGTCTGAACTCAGGCACGCTATTTGTTCATCTACTTACTCAAACATGTATTGTGAGATTACTCAGTGGCAGGCTCTGTCCTAGGTGCTGGGGATGGAGCAGTGCAGAGAGACAAAAACTCTGCTCTCATAAAGCTCACAATCTACAACCTGAGA	0.173 ratio
AAAACCTTCCTATCCCATGGTTATAAAGGAATCACTCATATTTTCTAAATGTGCTTTTTATATTTGTTTTAAACATTTAAAATCTTTGATCCATGTGGACTTTTTCTTGGTATGTAAAGTAAGGTACTAATTTATCAAGTGGCTGTCAGTCGTCCTAACACCTTTTATCAAAAAGTCCCCCTTTATGGTTAGG	0.257 ratio
GTGGATTCTTTCATTATACAAATACACGTTATTTTTTAATTTCAGAAGAAATCATGATATGTCAATCTATTGAGTGCTAACTAAAAGTTCCCTTTGTTTACTTAGCTTTCTCTTAGTTATAAGAAAGAAAAAGACTTCTTGCATGAAAATAGTACGTTGCAGGAAGAAGTTGCCATGCTAAGACTGGAGCTAG	0.495 ratio
CTCATTCCTTGCTTCCGCCAATAATCTGACTAGTAAAGAAGTCACTGCATGCCACAAATTGTCAGTGCTGACTTCCTCAACAAGGAAGTTATTTATTTACTTATTTAATATATATGGAGTGACTCAGCAAATTCCATCTTGAGAATACCAACTCCTGATGCCAACTGATTGTCAGTCATGGCTACAACAGGAG	0.456 ratio
CTTGCTTACTGCTAGCACAGCAGTCTGAGATGCATCTGCGAGGCGGCAGCCTGGCTGGGGGAGGGGTATCCGCCATTGCTGAGGCTTGAGTAGGTAATCTAAGCAGCCAGGAAGCTCGAACTGGGCGGAGCCCACCTCAGCTCAACAACGCCTACTGCCTCTAGACTCCACCTCTGTGGGCAGGGCACAGCTG	-0.0538 ratio
TCTCTTTTAAAAATAGTGTTGGTGATATTTTAATTTTTTTTCCAACCAGTTTATATTTTACCAAACGCTTTTCCAAAGGCTGGACATACAATGTAAACAAGAAGGTGGAAATGTTACCCAGAGATGTCTAGCTTGTTGCTGAACTACAAATTTATTATTTAGAGGAAAGTTTACACTAGACATGTTGTCCAGA	0.395 ratio
TTATGATCTGAGTATATATAGTAAGTACCTCCCCTTTCAGGGTAAGGCAGTAGGTAATACAGGGAAGCAGGTGAAAAGGTGACTCAGGTTGAGTAAACAACACCAAGCATATCTGACTCAAGGAATGCTTCAGAGGCCAGGGGTGCATGCCTGTAATCCCAGCACCTTGGAAGGCTGACACAGGAGGATCACT	0.419 ratio

Single results of other studies
SMILES	target	observed	technique	concentration	measurement	result
CCC(=O)N[C@@H]1CC[C@H](C(=O)N(C)c2ccc(-c3nc4ccccc4o3)cc2)C1	Serine/threonine-protein kinase RIO2 (RIOK2, Homo sapiens, UniProt Q9BVS4)	cell-free assay	competition with immobilised ligand	1 µM	remaining binding	100%
